Measured values of several laboratories.
Parts stem from different laboratories: compare values within a part only. Changes are numbered by the printed parent chain.

Study 1 — method: DHFR PCA, deep sequencing; sample: yeast; added: (+)-ABA 710 µM; baseline: wild-type fitted maximum; direction: higher = stronger binding
Target: ABI1, truncated, D143A, DHFR fusion (Arabidopsis thaliana)
Notes: methotrexate growth selection, single substitutions
Parent: PYL1, truncated, DHFR fusion (Arabidopsis thaliana); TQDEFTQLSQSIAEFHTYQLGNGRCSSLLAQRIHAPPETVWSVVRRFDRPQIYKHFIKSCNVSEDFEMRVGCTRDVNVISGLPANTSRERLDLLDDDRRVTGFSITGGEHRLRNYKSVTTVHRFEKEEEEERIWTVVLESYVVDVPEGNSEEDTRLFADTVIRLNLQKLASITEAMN; partner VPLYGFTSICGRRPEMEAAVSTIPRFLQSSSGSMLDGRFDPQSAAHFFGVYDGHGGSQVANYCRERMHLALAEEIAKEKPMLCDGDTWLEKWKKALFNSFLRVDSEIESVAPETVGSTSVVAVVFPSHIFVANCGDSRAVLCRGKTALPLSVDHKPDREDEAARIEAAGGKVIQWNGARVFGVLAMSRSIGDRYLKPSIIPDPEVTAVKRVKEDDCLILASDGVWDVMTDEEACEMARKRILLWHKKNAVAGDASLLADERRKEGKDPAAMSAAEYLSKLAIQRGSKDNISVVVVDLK
Under “relative binding score”, `A35I` is recorded as 65.8%.
`I133Q`: “relative binding score” 119%.
For `L8P`, “relative binding score” read 71.6%.
Under “relative binding score”, `R88I` is recorded as 111%.
`I57H` — result for “relative binding score”: 55.8%.
`G107I` — result for “relative binding score”: 33.7%.
`P146N`: “relative binding score” 65%.
For `N149S`, “relative binding score” read 98.8%.
`G148H` — result for “relative binding score”: 91.3%.
`D65T` — result for “relative binding score”: 95.5%.
`Q19M` — result for “relative binding score”: 95.9%.
`G148V` — result for “relative binding score”: 71.6%.
Under “relative binding score”, `Q7F` is recorded as 96.7%.

Study 2 — target: CCNA1, cyclin fold, Cln2 fusion (human); method: yeast growth competition, sequencing; sample: yeast; notes: weak parent motif; baseline: not given; direction: higher = stronger binding
Parent: CDKN1A docking peptide (human); SKACRRLFGPVDS
For `R5Q`, “normalised enrichment score” read -0.163.
`V11D`: “normalised enrichment score” 1.56.
`C4T`: “normalised enrichment score” 0.524.
Under “normalised enrichment score”, `K2V` is recorded as 0.63.
Under “normalised enrichment score”, `G9C` is recorded as 0.59.
`C4K`: “normalised enrichment score” 0.624.
`R5D` — result for “normalised enrichment score”: -0.566.
`V11P`: “normalised enrichment score” 0.279.
`K2Y` — result for “normalised enrichment score”: 0.573.
For `D12A`, “normalised enrichment score” read 0.231.
Under “normalised enrichment score”, `D12H` is recorded as 0.243.
`A3C`: “normalised enrichment score” 0.782.
`V11L`: “normalised enrichment score” 0.721.

Study 3 — method: protein-binding microarray; molecule type: double-stranded DNA, one strand shown; sample: in vitro; concentration: 2200 nM top; notes: 60-bp whole probe; added: salmon DNA 0.4 mg/ml; baseline: random background probes; direction: higher = stronger binding; all sequences stand within: GCCTAGCAC … GTCTTGATTCGCTTGACGCTGCTG
Target: Interferon regulatory factor 7, full length, phosphomimetic (IRF7, Homo sapiens, UniProt Q92985, residues 1-503, S471D/S472D/S475D/S476D/S477D/S483D/S484D/S487D)
Construct (chain): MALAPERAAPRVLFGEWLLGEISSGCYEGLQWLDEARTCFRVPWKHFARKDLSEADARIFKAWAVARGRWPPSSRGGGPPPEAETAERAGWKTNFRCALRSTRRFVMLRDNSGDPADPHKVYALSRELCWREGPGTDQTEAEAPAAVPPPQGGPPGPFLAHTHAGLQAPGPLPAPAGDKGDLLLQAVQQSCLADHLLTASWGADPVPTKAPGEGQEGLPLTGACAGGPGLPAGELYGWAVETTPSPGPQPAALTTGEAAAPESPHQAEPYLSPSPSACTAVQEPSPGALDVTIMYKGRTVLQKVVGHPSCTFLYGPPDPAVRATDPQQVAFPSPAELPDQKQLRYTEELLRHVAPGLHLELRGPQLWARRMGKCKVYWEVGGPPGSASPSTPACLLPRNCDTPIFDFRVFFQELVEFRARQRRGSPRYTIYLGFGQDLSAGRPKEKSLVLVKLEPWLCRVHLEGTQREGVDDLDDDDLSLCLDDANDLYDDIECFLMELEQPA
For `TTAGATATCGGGTTTCGATTAGTGCTA`, “fitted relative affinity” read 2.75 z-score.
`GACGGACTGGGGACTGGCGACGTGCTA` — result for “fitted relative affinity”: -0.82 z-score.
`TTTCCCATGAGTCTCAAAATGTGCTAG`: “fitted relative affinity” 2.28 z-score.
For `GACGGACTGGGGTTTCAGGACGTGCTA`, “fitted relative affinity” read -0.479 z-score.
Under “fitted relative affinity”, `TTAGAACTGAGTATCGATCAGTGCTAG` is recorded as -0.619 z-score.
Under “fitted relative affinity”, `GATGGACTGCTTCTCCTGACGTGCTAG` is recorded as 0.756 z-score.
Under “fitted relative affinity”, `GCTCTCTTCTGCTTCCTCAGGTGCTAG` is recorded as 2.16 z-score.
For `GACGGACTGCTCATCCTGACGTGCTAG`, “fitted relative affinity” read 0.311 z-score.
`TTAAGACTGGGGTTTCGGTTAGTGCTA`: “fitted relative affinity” 3.1 z-score.
`TCACTTTCCTTTATGTAACTGTGCTAG`: “fitted relative affinity” 5.53 z-score.
`TTAGATTTCGGGACTGTATTAGTGCTA`: “fitted relative affinity” 1.05 z-score.
Under “fitted relative affinity”, `CTGTGTACATCTCTCTTAAAGTGCTAG` is recorded as 0.854 z-score.
`GCTGTTCTCAGACTGGGTGCGTGCTAG` — result for “fitted relative affinity”: 1.04 z-score.
`TTAGGTATCGACGCTGGGTTAGTGCTA` — result for “fitted relative affinity”: -0.283 z-score.
`TTAGGTCTCCTTTTGCTTTAGTGCTAG`: “fitted relative affinity” 1.87 z-score.
`GCTTCTACACAGAGCATGGGGTGCTAG`: “fitted relative affinity” 0.353 z-score.

Other studies, line by line
The fold induction of `PhoQ, residues 284 288 289 292 302 303 HSYLQF` is reported as 12.7 (PhoP, residues 12 14 15 18 19 GHCSL (Escherichia coli, UniProt P23836); Sort-seq, item: YFP reporter; E. coli; PhoQ-PhoP variant library, added: 10 µM Mg2+; baseline: high Mg2+ state, higher = stronger signaling).

For quick reference, copied from above (study 2):
`V11D`: “normalised enrichment score” 1.56.
`C4T`: “normalised enrichment score” 0.524.
Under “normalised enrichment score”, `K2V` is recorded as 0.63.
Under “normalised enrichment score”, `G9C` is recorded as 0.59.
`C4K`: “normalised enrichment score” 0.624.
`R5D` — result for “normalised enrichment score”: -0.566.
`V11P`: “normalised enrichment score” 0.279.
